Results from different studies.
Compare with care: the assays were run in different laboratories. ± gives the spread as reported.

SMILES	cell line	read-out	technique	matrix	time	setting	IC50
CC1(C)CCCC(C)(C2CCC3(C)C2C(O)CC2C4(C)CCC(OC(=O)c5cn(-c6ccc(Cl)cc6)nn5)C(C)(C)C4C(OC(=O)c4cn(-c5ccc(Cl)cc5)nn4)CC23C)O1 (stereo not drawn)	Hep3B	cell growth or viability	MTT		24 h		> 30 µM
CN(C)C(=O)C1CN1S(=O)(=O)c1ccc2cc(N(C)C)ccc2c1 (stereo not drawn)	Balb/c 3T3 fibroblasts	cytotoxicity	neutral red uptake	DMEM with 5% FBS	24 h		12 ± 0.4 µM
O=C(Nc1ccc2c(c1)CN(c1ccc(Cl)cc1)C2=O)N1CC[C@H](O)C1	MRC-5 SV2	cytotoxicity					> 64 µM
C=C1C(=O)O[C@@H]2/C=C(\C)CC/C=C(/C(=O)OC)C[C@@H](OC(=O)/C(C)=C\C)[C@@H]12	NIH/3T3	cytotoxicity	WST-8		24 h	10% FBS	13.9 µM
O=C(Nc1ccc2c(c1)CN(c1ccccc1)C2=O)N1CCN(c2ccc(F)cc2)CC1	MRC-5 SV2	cytotoxicity					> 64 µM
CC(=O)OCC1OC(n2cc(C)c(=O)[nH]c2=O)C2CC=CCC12 (mixture of isomers)	CEM	cell growth			6 days		> 100 µM
CC1(C)CCCC(C)(C2CCC3(C)C2C(O)CC2C4(C)CCC(OC(=O)/C=C\c5ccccc5)C(C)(C)C4C(O)CC23C)O1 (stereo not drawn)	Hep3B	cell growth or viability	MTT		24 h		> 30 µM
Nc1nc(Cl)nc2c1ncn2C1OC(CO)C2CC=CCC21 (mixture of isomers)	CEM	cell growth			6 days		> 100 µM
COC(=O)C1CN1S(=O)(=O)c1ccc2c(C=O)c(N(C)C)ccc2c1 (stereo not drawn)	Balb/c 3T3 fibroblasts	cytotoxicity	neutral red uptake	DMEM with 5% FBS	24 h		11 ± 0.2 µM
O=C(Nc1ccc2c(c1)CN(c1ccc(Cl)c(Cl)c1)C2=O)N1CCN(c2ccccc2)CC1	MRC-5 SV2	cytotoxicity					> 64 µM
C=C1C(=O)O[C@@H]2/C=C(\C)CC/C=C(/C(=O)OC)[C@H](OC(C)=O)[C@@H](OC(=O)/C(C)=C\C)[C@@H]12	NIH/3T3	cytotoxicity	WST-8		24 h	10% FBS	9.09 µM
CC(C)(C)OC(=O)NCC(=O)OC1CC2(C)C(CC(O)C3C(C4(C)CCCC(C)(C)O4)CCC32C)C2(C)CCC(O)C(C)(C)C12 (stereo not drawn)	Hep3B	cell growth or viability	MTT		24 h		> 30 µM
O=C(NCCc1cccc(F)c1)[C@@H]1C[C@@H](Sc2nc3ccccc3[nH]2)CN1Cc1cccc(Cl)c1	MGC-803	cell growth or viability	CCK-8		24 h		33.6 µM
COc1cc(/C=C/C(=O)/C=C/c2ccc(O)c(OC)c2)ccc1O	CEM-T	cell viability	calcein-AM		24 h		2.4 µM
CCCCCCc1ccc(S(=O)(=O)N2CC2C(N)=O)cc1 (stereo not drawn)	Balb/c 3T3 fibroblasts	cytotoxicity	neutral red uptake	DMEM with 5% FBS	24 h		15 ± 2 µM
C=C1C(=O)OC2C=C(C)CCC=C(C(=O)OC(C)C(C)(O)C(=O)OC3C(OC(C)=O)C(C(=O)OC)=CCCC(C)=CC4OC(=O)C(=C)C43)CC(OC(=O)C(C)=CC)C12 (stereo not drawn)	NIH/3T3	cytotoxicity	WST-8		24 h	10% FBS	4.98 µM
CCCCc1ccc(N2C(=O)/C(=N\NC(=N)N)c3cc(C)ccc32)cc1	BJ	cell growth or viability	MTT		24 h		6.6 µg/mL
CC1(C)CCCC(C)(C2CCC3(C)C2C(O)CC2C4(C)CCC(O)C(C)(C)C4C(OC(=O)/C=C\c4ccccc4)CC23C)O1 (stereo not drawn)	Hep3B	cell growth or viability	MTT		24 h		> 30 µM

SMILES	cell line	read-out	technique	matrix	time	setting	IC50
COC(=O)C1CN1S(=O)(=O)c1cccc2cc(N(C)C)ccc12 (stereo not drawn)	Balb/c 3T3 fibroblasts	cytotoxicity	neutral red uptake	DMEM with 5% FBS	24 h		44 ± 5 µM
COc1ccc(-n2cc(C(=O)OC3CCC4(C)C(C(O)CC5(C)C4CC(O)C4C(C6(C)CCCC(C)(C)O6)CCC45C)C3(C)C)nn2)cc1 (stereo not drawn)	Hep3B	cell growth or viability	MTT		24 h		> 30 µM
O=C(Nc1ccc2c(c1)CN(c1ccc(Cl)c(Cl)c1)C2=O)N1CCN(c2ccc(Cl)cc2)CC1	MRC-5 SV2	cytotoxicity					> 64 µM
CC(=O)Nc1ccn(C2OC(COC(C)=O)C3CC=CCC32)c(=O)n1 (mixture of isomers)	CEM	cell growth			6 days		> 100 µM
O=C(Nc1ccc2c(c1)CN(c1ccc(F)c(F)c1)C2=O)N1CCN(c2ccc(F)cc2)CC1	MRC-5 SV2	cytotoxicity					> 64 µM
Cc1cc(=O)c2c(O)c3c(O[C@@H]4O[C@H](CO)[C@@H](O)[C@H](O)[C@H]4O)cc(O)cc3cc2o1	HepaRG in HK-2 co-culture	cell viability	MTT		48 h		90.4 µM
COc1ccc(-n2cc(C(=O)OC3CC4(C)C(CC(O)C5C(C6(C)CCCC(C)(C)O6)CCC54C)C4(C)CCC(OC(=O)c5cn(-c6ccc(OC)cc6)nn5)C(C)(C)C34)nn2)cc1 (stereo not drawn)	Hep3B	cell growth or viability	MTT		24 h		> 30 µM
Nc1ncnc2c1ncn2C1OC(CO)C2CC=CCC21 (mixture of isomers)	CEM	cell growth			6 days		> 100 µM
CCCCCCCCc1ccc(S(=O)(=O)N2CC2C(=O)OC)cc1 (stereo not drawn)	Balb/c 3T3 fibroblasts	cytotoxicity	neutral red uptake	DMEM with 5% FBS	24 h		110 ± 3 µM
C=C1C(=O)OC2C=C(C)CCC=C(C(=O)OC(C)C(C)(O)C(=O)OC3C(OC(C)=O)C(C(=O)OC)=CCCC4(C)OC4C4OC(=O)C(=C)C34)CC(OC(=O)C(C)=CC)C12 (stereo not drawn)	NIH/3T3	cytotoxicity	WST-8		48 h	10% FBS	1.67 µM
CN(C)C(=O)C1CN1S(=O)(=O)c1cccc2ccccc12 (stereo not drawn)	Balb/c 3T3 fibroblasts	cytotoxicity	neutral red uptake	DMEM with 5% FBS	24 h		15 ± 4 µM
CC(C)[C@H](N)C(=O)OC1CCC2(C)C(C(O)CC3(C)C2CC(O)C2C(C4(C)CCCC(C)(C)O4)CCC23C)C1(C)C (stereo partly drawn)	Hep3B	cell growth or viability	MTT		24 h		> 30 µM
N.N.O=C(CCCc1ccccc1)[O][Pt]([Cl])([Cl])[O]C(=O)CCCc1ccccc1	HCT-116 p53-/-	cytotoxicity			72 h		0.34 ± 0.08 µM
CCCCOc1ccc(S(=O)(=O)N2CC2C(=O)OC)cc1 (stereo not drawn)	Balb/c 3T3 fibroblasts	cytotoxicity	neutral red uptake	DMEM with 5% FBS	24 h		310 ± 10 µM
O=C(Nc1ccc2c(c1)CN(c1ccc(Cl)cc1)C2=O)N1CCN(c2ccc(F)cc2)CC1	MRC-5 SV2	cytotoxicity					> 64 µM
CC(C)C(NC(=O)OC(C)(C)C)C(=O)OC1CC2(C)C(CC(O)C3C(C4(C)CCCC(C)(C)O4)CCC32C)C2(C)CCC(OC(=O)C(NC(=O)OC(C)(C)C)C(C)C)C(C)(C)C12 (stereo not drawn)	Hep3B	cell growth or viability	MTT		24 h		> 30 µM
COC(=O)C1CN1S(=O)(=O)c1ccc2c(N(C)C)cccc2c1 (stereo not drawn)	Balb/c 3T3 fibroblasts	cytotoxicity	neutral red uptake	DMEM with 5% FBS	24 h		29 ± 1 µM
Clc1ccc2ccc3[n+](c2c1)[Ir-3]12([c]4ccccc4-3)([c]3ccccc3-c3ccc4ccc(Cl)cc4[n+]31)[n+]1ccccc1-c1cccc[n+]12.F[P-](F)(F)(F)(F)F	MDA-MB-231 CDK9 overexpressing	cytotoxicity	MTT				0.09 µM

Some of these lines once more:
SMILES	cell line	read-out	technique	matrix	time	setting	IC50
C=C1C(=O)OC2C=C(C)CCC=C(C(=O)OC(C)C(C)(O)C(=O)OC3C(OC(C)=O)C(C(=O)OC)=CCCC(C)=CC4OC(=O)C(=C)C43)CC(OC(=O)C(C)=CC)C12 (stereo not drawn)	NIH/3T3	cytotoxicity	WST-8		24 h	10% FBS	4.98 µM
CCCCc1ccc(N2C(=O)/C(=N\NC(=N)N)c3cc(C)ccc32)cc1	BJ	cell growth or viability	MTT		24 h		6.6 µg/mL
CC1(C)CCCC(C)(C2CCC3(C)C2C(O)CC2C4(C)CCC(O)C(C)(C)C4C(OC(=O)/C=C\c4ccccc4)CC23C)O1 (stereo not drawn)	Hep3B	cell growth or viability	MTT		24 h		> 30 µM
COC(=O)C1CN1S(=O)(=O)c1cccc2cc(N(C)C)ccc12 (stereo not drawn)	Balb/c 3T3 fibroblasts	cytotoxicity	neutral red uptake	DMEM with 5% FBS	24 h		44 ± 5 µM
